Experimental data gathered from unrelated publications.
Each line is one published result; not all experiments were run side by side. Several values in a cell are separate wells, animals, samples, runs or records. ± gives the spread as reported.
PPARG ligand-binding domain: Peroxisome proliferator-activated receptor gamma, ligand-binding domain (PPARG, Homo sapiens, UniProt P37231)
Sequence of UniProt P37231 (whole entry, looked up): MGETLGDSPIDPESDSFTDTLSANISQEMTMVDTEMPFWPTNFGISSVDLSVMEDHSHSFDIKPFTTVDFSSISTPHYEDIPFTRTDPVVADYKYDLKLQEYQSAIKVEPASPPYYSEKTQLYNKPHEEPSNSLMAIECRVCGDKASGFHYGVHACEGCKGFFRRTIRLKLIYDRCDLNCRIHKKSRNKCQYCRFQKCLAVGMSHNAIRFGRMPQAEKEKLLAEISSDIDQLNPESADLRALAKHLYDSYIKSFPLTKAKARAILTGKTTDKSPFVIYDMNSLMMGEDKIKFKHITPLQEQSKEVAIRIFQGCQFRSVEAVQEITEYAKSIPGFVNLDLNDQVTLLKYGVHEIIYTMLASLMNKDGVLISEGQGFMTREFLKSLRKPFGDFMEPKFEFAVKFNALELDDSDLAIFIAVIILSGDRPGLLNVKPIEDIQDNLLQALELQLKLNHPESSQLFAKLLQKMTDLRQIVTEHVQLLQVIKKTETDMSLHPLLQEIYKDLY

`CC(=O)[O-].O.O.[O-]c1ccc(Br)cc1C=NCCN1CCOCC1.[Zn+2]` has an inhibition of 26.7% (DPPH radical scavenging; 120 µM).
For `CC[C@H](C)[C@H](NC(=O)[C@H](Cc1ccc(O)cc1)NC(=O)[C@H](CCC(=O)O)NC(=O)CNC(=O)[C@H](CCC(=O)O)NC(=O)[C@H](CCCCN)NC(=O)[C@H](CCCCN)NC(=O)[C@H](CC(=O)O)NC(=O)[C@H](Cc1c[nH]cn1)NC(=O)[C@H](Cc1c[nH]cn1)NC(=O)[C@H](Cc1c[nH]cn1)NC(=O)[C@H](Cc1c[nH]cn1)NC(=O)[C@H](Cc1c[nH]cn1)NC(=O)[C@H](Cc1c[nH]cn1)NC(=O)[C@H](Cc1c[nH]cn1)NC(=O)[C@H](Cc1c[nH]cn1)NC(=O)[C@H](Cc1c[nH]cn1)NC(=O)[C@@H](N)Cc1c[nH]cn1)C(=O)N[C@@H](CCCCN)C(=O)N[C@@H](CC(C)C)C(=O)N[C@@H](CCCCN)C(=O)N[C@H](C(=O)N[C@H](C(=O)NCC(=O)N[C@@H](CCC(N)=O)C(=O)N[C@@H](CC(=O)O)C(=O)N[C@@H](CO)C(=O)N[C@@H](CO)C(=O)N[C@@H](CCC(=O)O)C(=O)N[C@H](C(=O)N[C@@H](Cc1c[nH]cn1)C(=O)N[C@@H](Cc1ccccc1)C(=O)N[C@@H](CCCCN)C(=O)N[C@H](C(=O)N[C@@H](CCCCN)C(=O)N[C@@H](CCSC)C(=O)N[C@H](C(=O)N[C@H](C(=O)N[C@@H](Cc1c[nH]cn1)C(=O)N[C@@H](CC(C)C)C(=O)N[C@@H](CCCCN)C(=O)N[C@@H](CCCCN)C(=O)N[C@@H](CC(C)C)C(=O)N[C@@H](CCCCN)C(=O)N[C@@H](CCC(=O)O)C(=O)N[C@@H](CO)C(=O)N[C@@H](Cc1ccc(O)cc1)C(=O)N[C@@H](CS)C(=O)N[C@@H](CCC(N)=O)C(=O)N[C@@H](CCCNC(=N)N)C(=O)N[C@@H](CCC(N)=O)C(=O)O)[C@@H](C)O)[C@@H](C)O)C(C)C)[C@@H](C)CC)[C@@H](C)CC)C(C)C`, “climbing mean difference” read -10 (Drosophila melanogaster; α-synuclein A53T transgenic; 60 µM, 11 days post eclosion, unit not given; baseline: untreated).
`Cc1c(Cc2cccc(OC(C)(C)C(=O)O)c2)c2ccc(C(=O)N[C@@H](C)c3cccc(C(C)C)c3)cc2n1C` has an IC50 of 380 nM (PPARG ligand-binding domain; reporter gene, luciferase reporter; HEK293T, Gal4-PPARγ LBD).
For `c1ccc(-c2n[nH]cc2-c2ccnc3ccccc23)nc1`, “log2 fold change” read -0.19 (TPK1 (Candida albicans); kinase binding, MIB/MS competition; Candida albicans lysate; 10 µM; baseline: DMSO).
`Cc1c(C)c2cccnc2c2ncccc12.O=[N+]([O-])[O-].O=c1c(C=NN=C([S-])Nc2ccccc2)coc2ccccc12.[Cu+2]` — result for “supercoiled DNA remaining”: 0% (supercoiled pUC19 DNA; oxidative DNA cleavage; concentration not given, sodium azide 50 µM, added: ascorbic acid).
The IC50 of `Nc1nc(-c2ccc(F)cc2F)nc2[nH]nc(Nc3ccc(F)cc3)c12` is reported as 20900 nM (coxsackievirus B3; viral cytopathic effect; HeLa).
For `C=C(NC(=O)c1csc(-c2nc3c(cc2O)-c2nc(cs2)C(=O)NC(C(C)O)C(=O)NC(=C(C)OC)c2nc(cs2)C(=O)NC2c4nc(cs4)C(=O)NC(COC(=O)c4c5c6c(cccc6n4O)COC(=O)C(OC4CC(C)(O)C(N(C)C)C(C)O4)C2OC5)c2nc-3cs2)n1)C(N)=O` (stereo not drawn), “lung bacterial load” read 6.14 log CFU/g (Streptococcus pneumoniae; -25, immunocompromised mice, lung infection; 16 mg/kg/day, twice daily, 24 h post-dose).
For `Cc1c(Cc2cccc(OC(C)(C)C(=O)O)c2)c2ccc(C(=O)N[C@@H](C)c3cccc(C(C)(C)C)c3)cc2n1C`, the IC50 was 150 nM (PPARG ligand-binding domain; reporter gene, luciferase reporter; HEK293T, Gal4-PPARγ LBD).
`Nc1nc(-c2ccccc2)nc2[nH]nc(Nc3cccc(F)c3)c12` gave an IC50 of 60 nM (rhinovirus B42; viral cytopathic effect; HeLa).
For `COC1CN([C@H]2CC[C@H]([C@@]3(C)Oc4c(Cl)cc(C(=O)NCc5c(SC)cc(C)[nH]c5=O)c(C)c4O3)CC2)C1`, “log2 fold change” read 2.92 (RNA-seq, item: MMP14; human, whole blood; dose not given, 24 h; baseline: pretreatment baseline).
`COc1ccc(C(=O)CCc2cc(C(CCc3ccc(O)cc3OC)c3ccc(O)cc3)c(O)cc2OC)cc1` (racemic) gave a PGD2 level of 4 ± 4 pg/mL (human blood; 0.3 µM, added: A23187).
For `C=CC(=O)Nc1cccc(Cn2ncc3cnc(Nc4cnn(CCOC)c4)nc32)c1`, “percent of control” read 100% (PLK2 human; binding, KINOMEscan; 100 nM; lower = stronger binding).
With `COc1cc(O)ccc1CCC(c1ccc(O)cc1)c1cc2c(c(C)c1O)OC(c1ccc(O)cc1)CC2` (mixture of isomers) the 4-HDHA level was 24 ± 6 pg/mL (human blood; 1 µM, added: A23187).
With `Nc1nc(-c2ccc(OC(F)(F)F)cc2)nc2[nH]nc(Nc3ccccc3)c12` the IC50 was 11100 nM (coxsackievirus B3; viral cytopathic effect; HeLa).
With `CN1CCC[C@]1(C)/C=C/S(=O)(=O)NC(=O)Nc1c2c(cc3c1CCC3)CCC2` the IL-1β inhibition was 98.9% (human, whole blood ex vivo; 50 mg single dose, 3 h, single ascending dose, added: LPS and ATP).
For `Cc1ncsc1-c1ccc(C(C)NC(=O)C2CC(O)CN2C(=O)C(NC(=O)CCCCCCCCCCN2CCCC(Nc3ncc(Cl)c(Nc4ccccc4S(=O)(=O)C(C)C)n3)C2)C(C)(C)C)cc1` (stereo not drawn), “log2 fold change” read -3.15 (22Rv1; RNA-seq, item: LEAP2 mRNA; concentration not given; baseline: DMSO).
`CN1CCCNC(=O)c2cccc(c2)C(=O)NCCCN(C)CCCNc2cccc3c2C(=O)c2cccc(c2C3=O)NCCC1` — result for “log2 fold change”: -0.46 (SAS; RNA-Seq, item: EXOC3 mRNA; 1 µM, 6 h; baseline: untreated cells).
With `Nc1ncnc2[nH]nc(Nc3ccc(F)c(F)c3)c12` the IC50 was 30900 nM (coxsackievirus B3; viral cytopathic effect; HeLa).
With `Cc1ncsc1-c1ccc(CNC(=O)[C@@H]2C[C@H](O)CN2C(=O)[C@@H](NC(=O)CN2CCN(C3CN(CCNC(=O)C[C@@H]4N=C(c5ccc(Cl)cc5)c5c(sc(C)c5C)-n5c(C)nnc54)C3)CC2)C(C)(C)C)cc1` the protein level was 166% and 127% and 151% and 162% (Spodoptera frugiperda; degrader, targeted LC-MS, item: BRD3; Sf9; 0.001 µM).
With `Nc1nc(-c2ccc(OC(F)(F)F)cc2)nc2[nH]nc(Nc3ccc(Cl)cc3)c12` the IC50 was 3100 nM (coxsackievirus B3; viral cytopathic effect; HeLa).
For `Nc1ncc(-c2cc(-c3cnn(CC(F)(F)F)c3)ncc2F)nc1C(=O)NC1CNCC(F)C1` (stereo not drawn), the remaining binding was 100% (WNK4; KINOMEscan; 1 µM; baseline: DMSO control).
For `N=C(c1ccc([N+](=O)[O-])o1)N1CCC(NC(=O)c2cc(-c3ccc(F)cc3F)on2)(c2nc3ccccc3[nH]2)CC1`, “IL6 mRNA level” read “inhibited” (STING pathway; inhibitor, RT-qPCR; mouse iBMDM; concentration not given, 2 h, added: diABZI 500 nM).
With `Nc1nc(-c2ccccc2)nc2[nH]nc(Nc3cc(F)c(F)c(F)c3)c12` the IC50 was 60 nM (coxsackievirus B3; viral cytopathic effect; HeLa).
`C=CC(=O)N1[C@@H](c2ccc3c(c2)OCO3)c2[nH]c3ccccc3c2C[C@H]1C(=O)N1CCN(C)CC1` — result for “log2 fold change”: 0.19 (CCNE1 WT-3xFLAG:CDK2 complex; co-IP TMT proteomics, item: CKS1B; HEK-293T; 20 µM, 6 h; baseline: DMSO).

Repeated from above:
For `CC[C@H](C)[C@H](NC(=O)[C@H](Cc1ccc(O)cc1)NC(=O)[C@H](CCC(=O)O)NC(=O)CNC(=O)[C@H](CCC(=O)O)NC(=O)[C@H](CCCCN)NC(=O)[C@H](CCCCN)NC(=O)[C@H](CC(=O)O)NC(=O)[C@H](Cc1c[nH]cn1)NC(=O)[C@H](Cc1c[nH]cn1)NC(=O)[C@H](Cc1c[nH]cn1)NC(=O)[C@H](Cc1c[nH]cn1)NC(=O)[C@H](Cc1c[nH]cn1)NC(=O)[C@H](Cc1c[nH]cn1)NC(=O)[C@H](Cc1c[nH]cn1)NC(=O)[C@H](Cc1c[nH]cn1)NC(=O)[C@H](Cc1c[nH]cn1)NC(=O)[C@@H](N)Cc1c[nH]cn1)C(=O)N[C@@H](CCCCN)C(=O)N[C@@H](CC(C)C)C(=O)N[C@@H](CCCCN)C(=O)N[C@H](C(=O)N[C@H](C(=O)NCC(=O)N[C@@H](CCC(N)=O)C(=O)N[C@@H](CC(=O)O)C(=O)N[C@@H](CO)C(=O)N[C@@H](CO)C(=O)N[C@@H](CCC(=O)O)C(=O)N[C@H](C(=O)N[C@@H](Cc1c[nH]cn1)C(=O)N[C@@H](Cc1ccccc1)C(=O)N[C@@H](CCCCN)C(=O)N[C@H](C(=O)N[C@@H](CCCCN)C(=O)N[C@@H](CCSC)C(=O)N[C@H](C(=O)N[C@H](C(=O)N[C@@H](Cc1c[nH]cn1)C(=O)N[C@@H](CC(C)C)C(=O)N[C@@H](CCCCN)C(=O)N[C@@H](CCCCN)C(=O)N[C@@H](CC(C)C)C(=O)N[C@@H](CCCCN)C(=O)N[C@@H](CCC(=O)O)C(=O)N[C@@H](CO)C(=O)N[C@@H](Cc1ccc(O)cc1)C(=O)N[C@@H](CS)C(=O)N[C@@H](CCC(N)=O)C(=O)N[C@@H](CCCNC(=N)N)C(=O)N[C@@H](CCC(N)=O)C(=O)O)[C@@H](C)O)[C@@H](C)O)C(C)C)[C@@H](C)CC)[C@@H](C)CC)C(C)C`, “climbing mean difference” read -10 (Drosophila melanogaster; α-synuclein A53T transgenic; 60 µM, 11 days post eclosion, unit not given; baseline: untreated).
`CC(=O)[O-].O.O.[O-]c1ccc(Br)cc1C=NCCN1CCOCC1.[Zn+2]` has an inhibition of 26.7% (DPPH radical scavenging; 120 µM).
For `Nc1ncc(-c2cc(-c3cnn(CC(F)(F)F)c3)ncc2F)nc1C(=O)NC1CNCC(F)C1` (stereo not drawn), the remaining binding was 100% (WNK4; KINOMEscan; 1 µM; baseline: DMSO control).
For `c1ccc(-c2n[nH]cc2-c2ccnc3ccccc23)nc1`, “log2 fold change” read -0.19 (TPK1 (Candida albicans); kinase binding, MIB/MS competition; Candida albicans lysate; 10 µM; baseline: DMSO).
